Assay results collected from several papers.
Lines come from different studies, so protocols differ.
Organism: Mycobacterium tuberculosis

COc1ccc(NCc2ccc(Oc3ccccn3)cc2)cc1  MIC (H37Rv, 7H9/ADC/Tween medium; 1 weeks): 41 µM
C[C@H](Oc1cccc(Cl)c1Cl)C(=O)Nc1ccc2oc(-c3ccc(C#N)cc3)nc2c1  MIC (H37Rv ATCC 27294, GAST/Fe and 7H9/ADC/Tween; 168 h): ≤ 5 µM
O=C(OCc1ccccc1)[C@@H]1COC(c2ccccc2)=N1  MIC (microplate alamar blue; H37Rv ATCC 27294; GAS medium, replicating): 5 µM
Cc1cccc(NCc2ccc(Oc3ccccn3)cc2)c1  MIC (H37Rv, GAST-Fe medium; 1 weeks, pH 6.6): 43 µM
Cc1cc2nc(C)c(C(=O)OCc3ccccc3)n2c(C)n1  MIC (microplate alamar blue; H37Rv (ATCC 27294), GAS medium; replicating bacteria, range): 0.9 to 1.4 µM
Clc1ccccc1NCc1ccc(Oc2ccccn2)cc1  MIC (H37Rv, 7H9/ADC/Tween medium; 1 weeks): > 100 µM
Oc1c(Cl)cc(Cl)cc1Sc1cc(Cl)cc(Cl)c1O  MIC (microbial growth; H37RV; 10 days): 9.9 µg/mL
C[C@H](Nc1cccc(F)c1F)C(=O)Nc1ccc2oc(-c3ccc(C#N)cc3)nc2c1  MIC (H37Rv ATCC 27294, GAST/Fe and 7H9/ADC/Tween; 168 h): ≤ 5 µM
c1ccc(-c2ccc(-c3ccnc(CN4CCC5(CCCC5)CC4)c3)cc2)cc1  MIC (Alamar Blue; H37Rv): 0.0156 µg/mL
O=[N+]([O-])c1cn2c(n1)OC[C@@H](NCc1ccc(OC(F)(F)F)cc1O)C2  MIC (growth; replicating; aerobic): < 0.1 µM
COc1ccc(-c2ccc(C(=O)OCc3ccccc3)cn2)cc1  MIC (microplate alamar blue; H37Rv (ATCC 27294), 7H12 medium; replicating bacteria, range): 5.8 to 11.9 µM
Nc1ncnc2c1ncn2[C@@H]1O[C@H](COS(=O)(=O)NC(=O)CCCCCCCCCCOc2ccc(C(F)(F)F)cc2)[C@@H](O)[C@H]1O  MIC (broth microdilution; H37Rv, GAST medium; MIC at >99% growth inhibition): 25 to 50 µM
C[C@H](Nc1cccc(Cl)c1Cl)C(=O)Nc1ccc2oc(-c3ccc(C#N)cc3)nc2c1  MIC (H37Rv ATCC 27294, GAST/Fe and 7H9/ADC/Tween; 168 h): ≤ 5 µM
CC(C)c1ccc(-c2ccnc(CN3CCC4(CC3)CC4)c2)cc1  MIC (microbial growth, resazurin; H37RV): 1 to 2 µg/mL
Cc1ccn2c(C(=O)NCc3ccccc3)c(-c3ccccc3)nc2c1  MIC (microplate alamar blue; H37Rv (ATCC 27294), GAS medium; replicating bacteria, range): 0.5 to 0.7 µM
Cc1ccn2c(C(=O)NCc3ccccc3)c(C)nc2c1  MIC (H37Rv, glycerol-alanine-salts medium; 90% growth inhibition): 0.2 µM
Clc1cccc(NCc2ccc(Oc3ccccn3)cc2)c1  MIC (H37Rv, GAST-Fe medium; 1 weeks, pH 6.6): 20 µM
CC1CCN(Cc2cc(-c3ccc(C(F)(F)F)cc3)ccn2)CC1  MIC (microbial growth, resazurin; H37RV): 4 to 8 µg/mL
COC(=O)CCCCCCCCCCC(=O)NS(=O)(=O)OC[C@H]1O[C@@H](n2cnc3c(N)ncnc32)[C@H](O)[C@@H]1O  MIC (broth microdilution; H37Rv, GAST medium; MIC at >99% growth inhibition): 3.13 to 6.25 µM
C#CCOC(=O)COc1ccc(-c2nc3cc(NC(=O)[C@H](C)Oc4cccc(Cl)c4Cl)ccc3o2)cc1  MIC (H37Rv ATCC 27294, GAST/Fe and 7H9/ADC/Tween; 168 h): < 1 µM
Cc1nc2ncccn2c1C(=O)OCc1ccccc1  MIC (microplate alamar blue; H37Rv (ATCC 27294), GAS medium; replicating bacteria, range): 1.7 to 2.7 µM
COc1ccc(-c2nc3cc(NC(=O)[C@H](C)Oc4ccccc4C#N)ccc3o2)cc1  MIC (H37Rv ATCC 27294, GAST/Fe and 7H9/ADC/Tween; 168 h): ≤ 5 µM
Nc1ncnc2c1ncn2[C@@H]1O[C@H](COS(=O)(=O)NC(=O)CCCCCCCCCCOc2ccccc2)[C@@H](O)[C@H]1O  MIC (broth microdilution; H37Rv, GAST medium; MIC at >99% growth inhibition): 3 µM
Fc1ccc(NCc2ccc(Oc3ccccn3)cc2)cc1  MIC (H37Rv, 7H9/ADC/Tween medium; 2 weeks): > 50 µM
Cc1ccc(-c2ccc(-c3ccnc(CN4CCC5(CCCC5)CC4)c3)cc2)cc1  MIC (microbial growth, resazurin; H37RV): 0.125 to 0.25 µg/mL
C=CCCCCCCCCC(=O)NS(=O)(=O)OC[C@H]1O[C@@H](n2cnc3c(N)ncnc32)[C@H](O)[C@@H]1O  MIC (broth microdilution; H37Rv, GAST medium; MIC at >99% growth inhibition): 0.39 to 0.78 µM
Clc1ccc(NCc2ccc(Oc3ccccn3)cc2)cc1  MIC (H37Rv, 7H9/ADC/Tween medium; 2 weeks): 80 µM
COc1cccc(OCCCCCCCCCCC(=O)NS(=O)(=O)OC[C@H]2O[C@@H](n3cnc4c(N)ncnc43)[C@H](O)[C@@H]2O)c1  MIC (broth microdilution; H37Rv, GAST medium; MIC at >99% growth inhibition): 25 to 50 µM
O=C(OCc1ccccc1)c1coc(-c2ccccc2)n1  MIC (microplate alamar blue; H37Rv (ATCC 27294), GAS medium; replicating bacteria, range): 0.5 to 7.9 µM
Fc1ccccc1NCc1ccc(Oc2ccccn2)cc1  MIC (H37Rv, 7H9/ADC/Tween medium; 2 weeks): > 100 µM
CCCCCC/C=C/CCCC(=O)NS(=O)(=O)OC[C@H]1O[C@@H](n2cnc3c(N)ncnc32)[C@H](O)[C@@H]1O  MIC (broth microdilution; H37Rv, GAST medium; MIC at >99% growth inhibition): 50 to 100 µM
Cc1ccccc1NCc1ccc(Oc2ccccn2)cc1  MIC (H37Rv, 7H9/ADC/Tween medium; 1 weeks): > 100 µM
Nc1ncnc2c1ncn2[C@@H]1O[C@H](COS(=O)(=O)NC(=O)CCCCCCCCCCO)[C@@H](O)[C@H]1O  MIC (broth microdilution; H37Rv, GAST medium; MIC at >99% growth inhibition): 3.13 to 6.25 µM
O=C(OCc1ccccc1)c1csc(-c2ccccc2)n1  MIC (microplate alamar blue; H37Rv (ATCC 27294), 7H12 medium; replicating bacteria, range): 4 to 9.8 µM
CC(C)c1ccc(-c2ccnc(CNC3CCCCCC3)c2)cc1  MIC (microbial growth, resazurin; H37RV): 1 to 2 µg/mL
C[C@H](Oc1cccc(Cl)c1Cl)C(=O)Nc1ccc2oc(-c3ccc(C(=O)O)cc3)nc2c1  MIC (H37Rv ATCC 27294, GAST/Fe medium without guanine; 1 week): ≤ 5 µM
CO[C@H]1/C=C/O[C@@]2(C)Oc3c(C)c(O)c4c(O)c(c(/C=N/N5CCN(C)CC5)c(O)c4c3C2=O)NC(=O)/C(C)=C\C=C\[C@H](C)[C@H](O)[C@@H](C)[C@@H](O)[C@@H](C)[C@H](OC(C)=O)[C@@H]1C  MIC (microplate alamar blue; H37Rv (ATCC 27294), GAS medium; replicating bacteria, range): 0.08 to 0.1 µM
CC(C)c1ccc(-c2ccnc(CNC34CC5CC(CC(C5)C3)C4)c2)cc1  MIC (microbial growth, resazurin; H37RV): 1 to 2 µg/mL
CCCCCCCCCC[C@H](C)C(=O)NS(=O)(=O)OC[C@H]1O[C@@H](n2cnc3c(N)ncnc32)[C@H](O)[C@@H]1O  MIC (broth microdilution; H37Rv, GAST medium; MIC at >99% growth inhibition): 50 µM

Some of these lines once more:
COC(=O)CCCCCCCCCCC(=O)NS(=O)(=O)OC[C@H]1O[C@@H](n2cnc3c(N)ncnc32)[C@H](O)[C@@H]1O  MIC (broth microdilution; H37Rv, GAST medium; MIC at >99% growth inhibition): 3.13 to 6.25 µM
C#CCOC(=O)COc1ccc(-c2nc3cc(NC(=O)[C@H](C)Oc4cccc(Cl)c4Cl)ccc3o2)cc1  MIC (H37Rv ATCC 27294, GAST/Fe and 7H9/ADC/Tween; 168 h): < 1 µM
Cc1nc2ncccn2c1C(=O)OCc1ccccc1  MIC (microplate alamar blue; H37Rv (ATCC 27294), GAS medium; replicating bacteria, range): 1.7 to 2.7 µM
COc1ccc(-c2nc3cc(NC(=O)[C@H](C)Oc4ccccc4C#N)ccc3o2)cc1  MIC (H37Rv ATCC 27294, GAST/Fe and 7H9/ADC/Tween; 168 h): ≤ 5 µM
Nc1ncnc2c1ncn2[C@@H]1O[C@H](COS(=O)(=O)NC(=O)CCCCCCCCCCOc2ccccc2)[C@@H](O)[C@H]1O  MIC (broth microdilution; H37Rv, GAST medium; MIC at >99% growth inhibition): 3 µM
